Results from different studies.
Each numbered part is a random draw from the data of one study; scales do not carry over between parts. Substitutions count along the parent as printed.
UniProt Q8IWQ3, sequence (whole entry, looked up): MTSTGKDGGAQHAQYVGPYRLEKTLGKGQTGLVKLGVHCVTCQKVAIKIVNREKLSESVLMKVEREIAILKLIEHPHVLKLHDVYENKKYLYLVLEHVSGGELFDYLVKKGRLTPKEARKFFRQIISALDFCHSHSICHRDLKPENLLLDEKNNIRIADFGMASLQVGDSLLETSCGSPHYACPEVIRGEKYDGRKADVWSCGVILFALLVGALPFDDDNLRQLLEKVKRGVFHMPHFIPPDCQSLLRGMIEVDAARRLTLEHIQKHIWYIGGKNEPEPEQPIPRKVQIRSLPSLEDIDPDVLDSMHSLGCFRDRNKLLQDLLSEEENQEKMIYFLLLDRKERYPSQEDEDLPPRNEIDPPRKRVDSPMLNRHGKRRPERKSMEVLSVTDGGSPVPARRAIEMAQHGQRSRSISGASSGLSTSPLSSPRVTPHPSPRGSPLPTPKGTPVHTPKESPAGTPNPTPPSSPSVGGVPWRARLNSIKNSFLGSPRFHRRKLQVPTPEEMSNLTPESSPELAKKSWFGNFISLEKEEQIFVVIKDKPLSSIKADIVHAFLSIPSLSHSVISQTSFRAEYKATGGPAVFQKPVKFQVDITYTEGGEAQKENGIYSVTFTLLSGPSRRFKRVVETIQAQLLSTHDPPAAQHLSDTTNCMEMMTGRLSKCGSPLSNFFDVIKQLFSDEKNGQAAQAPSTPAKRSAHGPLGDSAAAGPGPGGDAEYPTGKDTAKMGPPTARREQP
UniProt P11309, sequence (whole entry, looked up): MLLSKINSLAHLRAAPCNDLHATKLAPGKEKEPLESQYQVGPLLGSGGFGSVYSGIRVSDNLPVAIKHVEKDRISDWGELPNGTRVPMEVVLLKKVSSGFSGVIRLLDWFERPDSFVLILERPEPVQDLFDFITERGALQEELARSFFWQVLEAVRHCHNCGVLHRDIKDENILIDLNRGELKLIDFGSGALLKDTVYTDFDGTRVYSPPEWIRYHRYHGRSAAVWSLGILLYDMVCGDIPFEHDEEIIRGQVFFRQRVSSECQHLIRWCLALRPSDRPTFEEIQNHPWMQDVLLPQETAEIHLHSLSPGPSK
UniProt P06239, sequence (whole entry, looked up): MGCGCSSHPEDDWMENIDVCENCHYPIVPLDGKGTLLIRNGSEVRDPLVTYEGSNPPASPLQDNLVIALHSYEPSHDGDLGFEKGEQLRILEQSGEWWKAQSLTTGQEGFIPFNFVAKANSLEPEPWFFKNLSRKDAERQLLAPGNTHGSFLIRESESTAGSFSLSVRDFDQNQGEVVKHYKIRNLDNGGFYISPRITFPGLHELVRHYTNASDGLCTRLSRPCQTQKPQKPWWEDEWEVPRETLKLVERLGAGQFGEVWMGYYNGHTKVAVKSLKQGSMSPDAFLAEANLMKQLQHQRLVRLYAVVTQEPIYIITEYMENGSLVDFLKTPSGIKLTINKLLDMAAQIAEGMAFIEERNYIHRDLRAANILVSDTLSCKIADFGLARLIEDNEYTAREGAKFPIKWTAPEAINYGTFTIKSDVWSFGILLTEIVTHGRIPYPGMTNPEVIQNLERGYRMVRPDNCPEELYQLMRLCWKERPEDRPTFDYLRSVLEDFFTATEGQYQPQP
UniProt Q05513, sequence (whole entry, looked up): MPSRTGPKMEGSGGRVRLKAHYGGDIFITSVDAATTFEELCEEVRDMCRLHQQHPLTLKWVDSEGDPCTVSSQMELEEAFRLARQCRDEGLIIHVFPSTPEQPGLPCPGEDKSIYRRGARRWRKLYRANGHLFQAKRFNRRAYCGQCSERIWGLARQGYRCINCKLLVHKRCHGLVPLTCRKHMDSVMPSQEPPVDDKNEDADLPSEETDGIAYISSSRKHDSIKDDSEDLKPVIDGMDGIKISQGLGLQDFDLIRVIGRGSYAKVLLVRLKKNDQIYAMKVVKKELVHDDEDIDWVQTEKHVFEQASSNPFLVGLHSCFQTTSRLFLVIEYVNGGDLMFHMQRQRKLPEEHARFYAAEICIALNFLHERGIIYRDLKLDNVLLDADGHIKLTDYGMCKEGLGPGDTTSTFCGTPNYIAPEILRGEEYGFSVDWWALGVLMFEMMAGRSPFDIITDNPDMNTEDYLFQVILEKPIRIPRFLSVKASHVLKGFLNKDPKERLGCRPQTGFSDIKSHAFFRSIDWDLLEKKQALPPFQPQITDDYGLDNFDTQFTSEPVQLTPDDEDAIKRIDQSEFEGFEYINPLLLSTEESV
UniProt P54753, sequence (whole entry, looked up): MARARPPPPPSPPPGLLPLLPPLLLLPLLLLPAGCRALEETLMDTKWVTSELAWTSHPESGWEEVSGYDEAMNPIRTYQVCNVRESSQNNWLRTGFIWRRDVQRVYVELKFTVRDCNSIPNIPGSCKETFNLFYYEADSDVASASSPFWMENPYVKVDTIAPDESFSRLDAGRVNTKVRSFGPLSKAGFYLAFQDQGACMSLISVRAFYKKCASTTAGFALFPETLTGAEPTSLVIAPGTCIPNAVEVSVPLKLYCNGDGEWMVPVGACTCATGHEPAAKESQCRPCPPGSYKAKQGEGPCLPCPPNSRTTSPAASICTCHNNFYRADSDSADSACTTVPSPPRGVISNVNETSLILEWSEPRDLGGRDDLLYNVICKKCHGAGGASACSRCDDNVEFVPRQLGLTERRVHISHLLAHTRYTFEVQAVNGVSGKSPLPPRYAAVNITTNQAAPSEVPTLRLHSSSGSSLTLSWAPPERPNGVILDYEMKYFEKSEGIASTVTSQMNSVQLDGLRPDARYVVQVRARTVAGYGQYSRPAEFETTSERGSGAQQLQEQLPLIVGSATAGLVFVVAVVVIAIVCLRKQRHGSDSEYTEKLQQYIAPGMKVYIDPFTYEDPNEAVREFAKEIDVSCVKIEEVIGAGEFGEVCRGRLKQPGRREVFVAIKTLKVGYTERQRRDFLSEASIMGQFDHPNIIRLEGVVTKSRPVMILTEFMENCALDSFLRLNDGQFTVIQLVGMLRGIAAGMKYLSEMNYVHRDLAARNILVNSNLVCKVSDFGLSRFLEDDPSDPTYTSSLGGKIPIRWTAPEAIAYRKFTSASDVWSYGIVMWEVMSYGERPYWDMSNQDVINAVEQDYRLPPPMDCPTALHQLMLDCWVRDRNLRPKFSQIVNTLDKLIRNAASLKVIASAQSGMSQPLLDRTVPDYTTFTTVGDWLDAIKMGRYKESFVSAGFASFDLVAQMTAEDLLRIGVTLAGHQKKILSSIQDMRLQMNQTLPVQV
UniProt P23458, sequence (whole entry, looked up): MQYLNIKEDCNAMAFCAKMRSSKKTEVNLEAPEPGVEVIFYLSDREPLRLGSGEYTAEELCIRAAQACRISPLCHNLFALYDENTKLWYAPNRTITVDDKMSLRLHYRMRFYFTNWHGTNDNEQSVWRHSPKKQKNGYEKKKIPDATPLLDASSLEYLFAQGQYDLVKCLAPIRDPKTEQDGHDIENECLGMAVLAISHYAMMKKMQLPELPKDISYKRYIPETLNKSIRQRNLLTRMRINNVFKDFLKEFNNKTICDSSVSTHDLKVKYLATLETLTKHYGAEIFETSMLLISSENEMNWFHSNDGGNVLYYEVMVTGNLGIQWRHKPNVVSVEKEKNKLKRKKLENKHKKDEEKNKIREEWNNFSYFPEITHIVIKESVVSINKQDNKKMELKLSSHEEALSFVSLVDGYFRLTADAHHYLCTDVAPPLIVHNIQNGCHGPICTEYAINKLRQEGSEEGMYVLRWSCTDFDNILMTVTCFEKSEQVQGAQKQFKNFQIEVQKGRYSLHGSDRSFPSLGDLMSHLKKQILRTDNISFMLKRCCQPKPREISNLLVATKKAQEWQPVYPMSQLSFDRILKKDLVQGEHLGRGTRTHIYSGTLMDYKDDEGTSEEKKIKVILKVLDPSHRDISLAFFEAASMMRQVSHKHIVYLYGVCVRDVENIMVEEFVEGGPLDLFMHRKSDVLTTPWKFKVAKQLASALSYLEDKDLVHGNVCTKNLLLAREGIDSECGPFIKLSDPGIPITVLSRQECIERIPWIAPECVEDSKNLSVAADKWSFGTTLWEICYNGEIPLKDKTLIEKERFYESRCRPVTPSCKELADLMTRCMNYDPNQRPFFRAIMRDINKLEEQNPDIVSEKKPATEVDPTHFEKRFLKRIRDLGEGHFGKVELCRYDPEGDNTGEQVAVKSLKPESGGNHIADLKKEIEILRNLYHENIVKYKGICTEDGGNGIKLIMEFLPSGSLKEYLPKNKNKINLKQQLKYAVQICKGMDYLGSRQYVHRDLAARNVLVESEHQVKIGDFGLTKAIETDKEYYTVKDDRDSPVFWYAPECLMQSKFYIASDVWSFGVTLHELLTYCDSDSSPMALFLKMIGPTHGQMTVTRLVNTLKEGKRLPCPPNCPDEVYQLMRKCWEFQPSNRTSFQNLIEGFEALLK
UniProt P07947, sequence (whole entry, looked up): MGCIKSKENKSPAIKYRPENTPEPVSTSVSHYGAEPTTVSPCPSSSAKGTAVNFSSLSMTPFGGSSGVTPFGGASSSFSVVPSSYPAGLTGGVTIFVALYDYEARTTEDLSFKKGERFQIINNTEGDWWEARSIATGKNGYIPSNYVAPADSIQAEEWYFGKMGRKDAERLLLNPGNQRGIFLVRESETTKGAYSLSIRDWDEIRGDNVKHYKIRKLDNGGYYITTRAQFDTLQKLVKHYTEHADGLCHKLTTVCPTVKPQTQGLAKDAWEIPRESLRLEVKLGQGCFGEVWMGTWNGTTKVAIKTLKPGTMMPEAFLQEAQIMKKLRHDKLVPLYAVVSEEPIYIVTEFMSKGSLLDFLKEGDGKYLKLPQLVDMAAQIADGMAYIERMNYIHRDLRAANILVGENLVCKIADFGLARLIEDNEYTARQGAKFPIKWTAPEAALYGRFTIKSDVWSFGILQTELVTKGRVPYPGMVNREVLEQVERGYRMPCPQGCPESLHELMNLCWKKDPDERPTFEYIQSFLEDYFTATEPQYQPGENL

Set 1
Structure (SMILES): C[S+]([O-])c1ccc(-c2nc(-c3ccncc3)c(-c3ccc(F)cc3)[nH]2)cc1 (stereo not drawn)
Effect on: enzyme activity
Mode: inhibitor
Concentration: 0.5 µM
Baseline: control
target	remaining activity
EPHB3 (Homo sapiens, UniProt P54753)	96.7%
YES1 (Homo sapiens, UniProt P07947)	92.6%
PAK5 (Homo sapiens, UniProt Q9P286)	104%
IGF1R (Homo sapiens, UniProt P08069)	94.3%
Cyclin-dependent kinase 2, with cyclin E (CDK2, Homo sapiens, UniProt P24941)	93.1%
PIM1 (Homo sapiens, UniProt P11309)	103%
Cyclin-dependent kinase 5, with p35 (CDK5, Homo sapiens, UniProt Q00535)	97.3%
EPHA6 (Homo sapiens, UniProt Q9UF33)	57.2%
JAK1 (Homo sapiens, UniProt P23458)	105%
JAK2 (Homo sapiens, UniProt O60674)	99.5%
FLT1 (Homo sapiens, UniProt P17948)	95.2%
RPS6KB2 (Homo sapiens, UniProt Q9UBS0)	97.2%
BRSK2 (Homo sapiens, UniProt Q8IWQ3)	101%
PRKCZ (Homo sapiens, UniProt Q05513)	103%

Set 2
SMILES: CCC(=O)N[C@@H]1CC[C@H](C(=O)N(C)c2ccc(-c3nc4ccccc4o3)cc2)C1
Effect on: cell-free assay
Method: competition with immobilised ligand
Concentration: 1 µM
target	remaining binding
CDKL3 (Homo sapiens, UniProt Q8IVW4)	79%
DMPK (Homo sapiens, UniProt Q09013)	100%
MAP2K7 (Homo sapiens, UniProt O14733)	98%
MAPK1 (Homo sapiens, UniProt P28482)	88%
MAP3K13 (Homo sapiens, UniProt O43283)	100%
EGFR (Homo sapiens, UniProt P00533, L858R)	100%
LCK (Homo sapiens, UniProt P06239)	100%

Set 3
Target: ABI1, truncated, D143A, DHFR fusion (Arabidopsis thaliana, UniProt P49597)
Method: DHFR PCA, dose-response
Medium: yeast
Setting: Hill fit, mean, not affinity
Together with: (+)-ABA, dose series
Direction: lower = more sensitive
Parent: PYL1, truncated, DHFR fusion (Arabidopsis thaliana, UniProt Q8VZS8); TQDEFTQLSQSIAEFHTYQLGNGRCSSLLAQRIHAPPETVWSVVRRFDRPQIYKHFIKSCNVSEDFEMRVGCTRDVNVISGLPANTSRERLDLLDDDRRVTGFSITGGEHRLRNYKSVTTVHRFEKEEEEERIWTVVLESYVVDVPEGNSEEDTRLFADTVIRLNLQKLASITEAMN
Change	ABA EC50 [µM]
E147M	3.78
C25W	374
R24W	57
T101N	175
E109R	16.1
R132S	0.531
S104M	162
A175R	1.49

Further values, each from its own experiment
SMILES	test system	endpoint	value
CCOC(=O)[C@@H]1CSCC(=O)N[C@H](CC)C(=O)N(C)[C@@H](C)C(=O)N[C@H](CC(C)C)C(=O)N2CCC[C@@H]2C(=O)N(CC(C)C)CC(=O)N[C@@H](CC(C)C)C(=O)N(C)[C@@H](C)C(=O)N[C@@H](CC(C)C)C(=O)N1C	hydrocarbon/water	logD	0.789
